Measurements from different studies.
Numbered parts are unrelated; each lists some results of a single study. Changes are numbered by the printed parent chain.

Block 1
Target: CEP164, C-terminal peptide (human)
Method: DHFR complementation, deep sequencing
Sample: yeast
Setting: single substitutions, model-inferred values
Relative to: wild type
Reading: higher = weaker binding
Parent: PDZK1, PDZ domain 2 (human); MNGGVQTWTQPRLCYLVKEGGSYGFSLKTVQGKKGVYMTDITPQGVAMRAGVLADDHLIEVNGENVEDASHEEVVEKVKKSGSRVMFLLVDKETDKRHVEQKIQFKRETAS; partner HNRVKVYRF
| Substitution | binding free energy change [kcal/mol] |
| --- | --- |
| H98D | 0.0169 |
| L58I | 0.0921 |
| D68W | 0.0228 |
| Q104C | -0.264 |
| L89Q | 1.1 |
| T94K | 0.0203 |
| Q44Y | 0.0221 |
| P11G | -0.188 |

Block 2
Target: Interferon regulatory factor 7, full length, phosphomimetic (IRF7, Homo sapiens, UniProt Q92985, residues 1-503, S471D/S472D/S475D/S476D/S477D/S483D/S484D/S487D)
Method: protein-binding microarray
Molecule type: double-stranded DNA, one strand shown
Sample: in vitro
Concentration: 2200 nM top
Setting: 60-bp whole probe
Added: salmon DNA 0.4 mg/ml
Relative to: random background probes
Reading: higher = stronger binding
Shared flanks, not repeated: GCCTAGCAC … GTCTTGATTCGCTTGACGCTGCTG
Residues (chain): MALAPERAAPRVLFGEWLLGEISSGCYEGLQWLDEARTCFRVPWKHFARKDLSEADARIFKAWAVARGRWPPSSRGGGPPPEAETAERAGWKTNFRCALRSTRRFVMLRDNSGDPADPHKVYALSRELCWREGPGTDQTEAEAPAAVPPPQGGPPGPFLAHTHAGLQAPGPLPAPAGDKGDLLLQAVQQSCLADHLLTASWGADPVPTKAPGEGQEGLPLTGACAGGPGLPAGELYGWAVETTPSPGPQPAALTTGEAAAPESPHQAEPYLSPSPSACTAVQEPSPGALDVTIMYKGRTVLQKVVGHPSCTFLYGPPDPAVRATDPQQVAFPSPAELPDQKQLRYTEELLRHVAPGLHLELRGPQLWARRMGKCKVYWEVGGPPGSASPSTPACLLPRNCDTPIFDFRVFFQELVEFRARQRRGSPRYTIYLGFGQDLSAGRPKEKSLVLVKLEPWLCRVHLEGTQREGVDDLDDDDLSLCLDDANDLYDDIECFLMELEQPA
| Oligonucleotide | fitted relative affinity |
| --- | --- |
| TCACCTGTCTACATGGGACTGTGCTAG | 0.942 z-score |
| TCAGGTTTCGACTTTCGGTTAGTGCTA | 11 z-score |
| GACGGACTGCTTTTCCTAACGTGCTAG | 0.769 z-score |
| TTCTTAATGCTTCTGGGCCAGTGCTAG | 0.0153 z-score |
| GACGGACTGGGACGGGGGACGTGCTAG | 0.122 z-score |
| TCATGTTTCTCAACCATACTGTGCTAG | 2.17 z-score |
| TCAACTTTCCACTTGTCACTGTGCTAG | 6.69 z-score |
| TTAGGGCTGGGTCTCGGTTAGTGCTAG | -0.756 z-score |

Block 3
Target: ABI1, truncated, D143A, DHFR fusion (Arabidopsis thaliana)
Method: DHFR PCA, deep sequencing
Sample: yeast
Setting: methotrexate growth selection, single substitutions
Added: (+)-ABA 0.39 µM
Relative to: wild-type fitted maximum
Reading: higher = stronger binding
Parent: PYL1, truncated, DHFR fusion (Arabidopsis thaliana); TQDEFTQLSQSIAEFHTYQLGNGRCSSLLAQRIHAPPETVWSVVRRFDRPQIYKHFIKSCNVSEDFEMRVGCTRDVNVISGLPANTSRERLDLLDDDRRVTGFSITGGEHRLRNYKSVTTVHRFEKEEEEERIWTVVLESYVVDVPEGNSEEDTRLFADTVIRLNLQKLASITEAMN
| Substitution | relative binding score |
| --- | --- |
| D97P | 4% |
| G107I | -7.44% |
| I133Q | 58.2% |
| R111L | 7.84% |
| K54R | 23.5% |
| N61V | 64.9% |
| G148V | -6.17% |
| S87D | 1.21% |

Other studies, line by line
Parent: viral docking peptide; KGVKRKLFAEDSS
| Substitution | target | assay | system | setting | how to read | endpoint | result |
| --- | --- | --- | --- | --- | --- | --- | --- |
| KGWKRKLFAEDSS [V3W] | CCND2, cyclin fold, Cln2 fusion (human) | yeast growth competition, sequencing | yeast | weak parent motif | relative to: not given, higher = stronger binding | normalised enrichment score | -0.335 |
